Experimental data gathered from unrelated publications.
A part holds a random share of what one study measured. “And” joins repeats or separate records; there may be more than shown. ± marks the error that the study gave.
UniProt Q05397, sequence (whole entry, looked up): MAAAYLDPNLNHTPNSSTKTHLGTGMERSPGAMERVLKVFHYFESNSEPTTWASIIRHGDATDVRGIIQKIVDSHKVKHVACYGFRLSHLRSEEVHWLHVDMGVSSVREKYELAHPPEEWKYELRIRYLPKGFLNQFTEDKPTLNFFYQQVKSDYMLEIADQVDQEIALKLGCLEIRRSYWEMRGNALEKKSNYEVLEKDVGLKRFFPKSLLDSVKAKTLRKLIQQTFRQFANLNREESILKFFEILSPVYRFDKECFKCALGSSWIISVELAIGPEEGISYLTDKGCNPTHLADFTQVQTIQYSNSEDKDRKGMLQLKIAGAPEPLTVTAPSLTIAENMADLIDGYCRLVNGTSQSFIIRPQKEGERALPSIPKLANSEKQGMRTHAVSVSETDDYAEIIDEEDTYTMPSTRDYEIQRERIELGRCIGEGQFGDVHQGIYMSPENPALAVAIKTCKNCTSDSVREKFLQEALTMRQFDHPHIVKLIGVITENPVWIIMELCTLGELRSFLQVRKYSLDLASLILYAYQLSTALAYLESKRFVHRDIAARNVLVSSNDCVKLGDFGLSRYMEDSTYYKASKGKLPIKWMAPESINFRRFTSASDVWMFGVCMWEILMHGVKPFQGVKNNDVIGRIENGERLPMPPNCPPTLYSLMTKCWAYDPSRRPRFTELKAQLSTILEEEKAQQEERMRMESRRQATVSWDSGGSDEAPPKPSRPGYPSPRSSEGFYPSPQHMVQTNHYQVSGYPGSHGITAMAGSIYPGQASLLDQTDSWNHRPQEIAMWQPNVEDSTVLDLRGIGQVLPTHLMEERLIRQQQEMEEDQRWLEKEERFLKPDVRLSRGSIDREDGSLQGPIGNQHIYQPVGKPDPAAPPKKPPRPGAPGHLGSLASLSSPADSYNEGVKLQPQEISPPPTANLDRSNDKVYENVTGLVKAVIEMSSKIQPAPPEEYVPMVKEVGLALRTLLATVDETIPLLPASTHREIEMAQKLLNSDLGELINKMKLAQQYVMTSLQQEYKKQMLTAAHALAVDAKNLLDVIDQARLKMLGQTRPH
UniProt Q9NQU5, sequence (whole entry, looked up): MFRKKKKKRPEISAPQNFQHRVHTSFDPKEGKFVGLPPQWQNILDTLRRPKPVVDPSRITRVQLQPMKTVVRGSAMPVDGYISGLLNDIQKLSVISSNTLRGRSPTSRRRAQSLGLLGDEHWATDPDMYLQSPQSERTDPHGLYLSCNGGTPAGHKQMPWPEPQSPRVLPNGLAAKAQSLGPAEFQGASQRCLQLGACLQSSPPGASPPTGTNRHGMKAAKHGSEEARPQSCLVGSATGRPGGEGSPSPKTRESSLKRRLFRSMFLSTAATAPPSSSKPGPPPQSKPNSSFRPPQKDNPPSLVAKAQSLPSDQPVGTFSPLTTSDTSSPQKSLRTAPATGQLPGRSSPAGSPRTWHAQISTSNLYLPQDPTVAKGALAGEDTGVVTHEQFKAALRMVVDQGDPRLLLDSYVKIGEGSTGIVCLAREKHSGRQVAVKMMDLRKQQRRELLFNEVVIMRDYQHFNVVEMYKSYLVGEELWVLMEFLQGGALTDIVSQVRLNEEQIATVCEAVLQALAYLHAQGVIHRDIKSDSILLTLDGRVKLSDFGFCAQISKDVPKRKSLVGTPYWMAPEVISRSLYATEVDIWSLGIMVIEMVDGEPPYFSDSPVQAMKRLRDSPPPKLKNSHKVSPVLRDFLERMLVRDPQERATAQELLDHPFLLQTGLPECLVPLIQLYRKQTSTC
UniProt P52564, sequence (whole entry, looked up): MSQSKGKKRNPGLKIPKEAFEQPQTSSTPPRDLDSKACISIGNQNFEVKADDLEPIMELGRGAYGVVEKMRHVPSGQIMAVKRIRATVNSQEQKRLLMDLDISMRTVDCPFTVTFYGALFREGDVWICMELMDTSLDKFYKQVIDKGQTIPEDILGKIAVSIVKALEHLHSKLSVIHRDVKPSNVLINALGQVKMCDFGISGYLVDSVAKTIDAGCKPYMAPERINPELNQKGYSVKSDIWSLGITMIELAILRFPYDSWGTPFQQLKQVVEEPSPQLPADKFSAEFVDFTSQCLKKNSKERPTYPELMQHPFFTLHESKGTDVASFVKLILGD

Series 1
Structure (SMILES): Cc1nc(C)c(C=[N+]([O-])C(C)(C)C)nc1C
Notes: unit not given
Baseline: β-actin
tested on | test | system | setting | protein level
 | western blot, refers to: Nrf2 | MPTP mouse model, substantia nigra nuclei | 30 mg/kg | 98.5 and 133 and 99
 | Western blot, refers to: PGC-1α | primary midbrain neurons, rat | 30 µM, with: MPP+ | 87.5 and 110 and 114
primary rat midbrain neurons | Western blot, refers to: MEF2D |  | 300 µM, with: MPP+ | 131 and 139 and 119
 | Western blot, refers to: tyrosine hydroxylase | MPTP mouse model, substantia nigra | 10 mg/kg | 86.8 and 89.4 and 77 and 107
 | Western blot, refers to: TFAM | MPTP-treated mice, substantia nigra cytosol | 90 mg/kg | 131 and 132 and 124 and 123
 | Western blot, refers to: TFAM | MPTP-treated mice, substantia nigra cytosol | 10 mg/kg | 99.9 and 65.3 and 82.1 and 72.6
primary rat midbrain neurons | Western blot, refers to: SIRT1 |  | 100 µM, with: MPP+ | 163 and 95.6 and 169
primary rat midbrain neurons | Western blot, refers to: MEF2D |  | 100 µM, with: MPP+ | 122 and 125 and 107
 | Western blot, refers to: MEF2D | MPTP-treated mice, substantia nigra cytosol | 10 mg/kg | 73.6 and 70.4 and 109 and 57.5
 | western blot, refers to: MEF2D | MPTP mouse model, substantia nigra nuclei | 30 mg/kg | 144 and 113 and 181

Series 2
SMILES: C[C@@H]1CN(c2ccc(-c3cc(C(=O)NCCOCCOCCOCCOCCOCCOCCNC(=O)/C=C/c4[nH]cc(C(=O)N[C@@H](CC(N)=O)c5ccc(F)c(Cl)c5)c4-c4ccc(Cl)cc4F)ccc3F)cc2NC(=O)c2ccc(F)cc2C(F)(F)F)C[C@H](C)N1C
Effect on: thermal unfolding
Technique: differential scanning fluorimetry
Tested at: 5.5 µM
Reading: higher = more unfolded
DCAF1: DDB1- and CUL4-associated factor 1 (DCAF1, Homo sapiens, UniProt Q9Y4B6)
UniProt Q9Y4B6, sequence (whole entry, looked up): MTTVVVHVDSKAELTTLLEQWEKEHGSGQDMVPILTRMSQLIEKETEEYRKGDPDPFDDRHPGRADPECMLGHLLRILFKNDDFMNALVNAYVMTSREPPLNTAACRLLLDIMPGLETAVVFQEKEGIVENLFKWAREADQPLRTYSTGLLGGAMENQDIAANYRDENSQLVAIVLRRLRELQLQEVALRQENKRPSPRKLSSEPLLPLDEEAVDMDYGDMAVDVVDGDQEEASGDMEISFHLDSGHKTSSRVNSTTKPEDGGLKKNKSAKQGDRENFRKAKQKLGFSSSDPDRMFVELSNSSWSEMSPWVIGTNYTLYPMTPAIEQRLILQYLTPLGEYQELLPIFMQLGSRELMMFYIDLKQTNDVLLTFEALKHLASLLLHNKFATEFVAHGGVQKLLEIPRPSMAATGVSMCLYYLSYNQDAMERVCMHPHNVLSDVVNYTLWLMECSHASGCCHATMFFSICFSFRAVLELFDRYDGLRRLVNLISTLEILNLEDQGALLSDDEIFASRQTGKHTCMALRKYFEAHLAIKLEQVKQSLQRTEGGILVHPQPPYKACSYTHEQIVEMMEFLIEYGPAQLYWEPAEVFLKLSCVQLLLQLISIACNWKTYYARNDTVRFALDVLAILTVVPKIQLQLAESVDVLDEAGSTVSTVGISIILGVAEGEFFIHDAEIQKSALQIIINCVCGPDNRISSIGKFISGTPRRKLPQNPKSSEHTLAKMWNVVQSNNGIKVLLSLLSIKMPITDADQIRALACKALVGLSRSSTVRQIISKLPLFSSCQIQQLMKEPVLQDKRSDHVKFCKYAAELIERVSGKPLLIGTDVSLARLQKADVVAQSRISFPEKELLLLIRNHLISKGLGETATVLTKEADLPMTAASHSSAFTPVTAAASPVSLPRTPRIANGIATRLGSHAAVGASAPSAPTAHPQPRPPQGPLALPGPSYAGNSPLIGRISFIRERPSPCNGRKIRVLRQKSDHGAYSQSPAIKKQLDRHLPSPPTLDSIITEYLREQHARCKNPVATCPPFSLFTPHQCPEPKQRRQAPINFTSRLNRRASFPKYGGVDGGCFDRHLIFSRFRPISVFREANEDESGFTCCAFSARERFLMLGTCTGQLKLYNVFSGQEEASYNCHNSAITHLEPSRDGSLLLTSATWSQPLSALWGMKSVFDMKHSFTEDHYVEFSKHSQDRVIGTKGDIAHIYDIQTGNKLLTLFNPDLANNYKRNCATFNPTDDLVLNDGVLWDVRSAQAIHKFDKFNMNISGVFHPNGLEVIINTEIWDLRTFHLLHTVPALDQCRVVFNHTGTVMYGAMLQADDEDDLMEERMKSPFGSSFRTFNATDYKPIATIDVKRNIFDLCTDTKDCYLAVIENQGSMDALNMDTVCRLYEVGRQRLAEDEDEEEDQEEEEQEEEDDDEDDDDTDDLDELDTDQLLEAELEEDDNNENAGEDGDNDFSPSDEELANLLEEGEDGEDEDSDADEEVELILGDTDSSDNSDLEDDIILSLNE
WDR5: WD repeat-containing protein 5 (WDR5, Homo sapiens, UniProt P61964)
target | setting | SYPRO Orange fluorescence
DCAF1 | 41.8 °C | 12700 a.u.
WDR5 | 26 °C | 13200 a.u.
DCAF1 | 28.4 °C | 8020 a.u.
DCAF1 | 59.81 °C | 46500 a.u.
WDR5 | 89.41 °C | 55900 a.u.
DCAF1 | 44.2 °C | 14200 a.u.
WDR5 | 47 °C | 15100 a.u.
WDR5 | 59.01 °C | 15600 a.u.
DCAF1 | 74.01 °C | 44800 a.u.
DCAF1 | 30.2 °C | 8410 a.u.
WDR5 | 94.81 °C | 48400 a.u.

Series 3
Organism: Leishmania donovani
Cells: THP-1
Strain: DD8
Sample: intracellular amastigotes
Baseline: THP-1 cytotoxicity over amastigote activity
SMILES | selectivity index
Clc1ccc2nc3c(c(Nc4ccc5c(c4)OCCO5)c2c1)CCC3 | 2.11
Clc1ccc(Nc2c3c(nc4ccccc24)CCC3)cc1 | 1.74
CC(=O)c1cccc(Nc2c3c(nc4ccccc24)CCC3)c1 | 2.34
CCOc1ccc(Nc2c3c(nc4ccc(Cl)cc24)CCC3)cc1 | 5.02
COC(=O)c1cccc(Nc2c3c(nc4ccccc24)CCC3)c1 | 2.65
Clc1ccc2nc3c(c(Nc4ccc(Oc5ccccc5)cc4)c2c1)CCC3 | 2.93
Cc1ccc(Nc2c3c(nc4ccccc24)CCC3)cc1 | 4.36
COC(=O)c1ccc(Nc2c3c(nc4ccccc24)CCC3)cc1 | 2.02

Series 4
Organism: Arabidopsis thaliana
Strain: Col-0
Tested at: 100 µg/mL
Notes: seed germination
Compound | root length
Cc1ccc2c(c1)OC(O)(C(=O)O)C(=O)N2Cc1ccccc1 (stereo not drawn) | 0.752 cm
O=C(O)C1Oc2cc(F)ccc2N(Cc2ccccc2)C1=O (stereo not drawn) | 0.74 cm
O=C(O)C1(O)Oc2cc(Cl)ccc2N(Cc2ccccc2)C1=O (stereo not drawn) | 0.067 cm
CC(C)=CCN1C(=O)C(O)(C(=O)O)Oc2cc(F)ccc21 (stereo not drawn) | 0.77 cm
O=C(O)C1(O)Oc2cc(Br)ccc2N(Cc2ccccc2)C1=O (stereo not drawn) | 0.135 cm
COc1ccc2c(c1)OC(O)(C(=O)O)C(=O)N2Cc1ccccc1 (stereo not drawn) | 0.248 cm
CCN1C(=O)C(O)(C(=O)O)Oc2cc(F)ccc21 (stereo not drawn) | 0.328 cm
O=C(O)C1(O)Oc2ccccc2N(Cc2ccccc2)C1=O (stereo not drawn) | 0.736 cm
CCCN1C(=O)C(O)(C(=O)O)Oc2cc(F)ccc21 (stereo not drawn) | 0.129 cm
CN1C(=O)C(O)(C(=O)O)Oc2cc(F)ccc21 (stereo not drawn) | 0.438 cm
CC(C)(C)c1ccc(Oc2ccc3c(c2)OC(O)(C(=O)O)C(=O)N3Cc2ccccc2)cc1 (stereo not drawn) | 0.122 cm

Series 5
Compound: COCCCCCCC1CC2C(CCC3(C)C(O)CCC23)c2ccc(O)cc21 (stereo not drawn)
cell line | test | setting | how to read | mRNA level ratio
SK-OV-3 | DNA microarray, refers to: ACTB | 10 µM | baseline: untreated cells | 0.772
SK-OV-3 | DNA microarray, refers to: CCL22 | 50 µM | baseline: untreated cells | 1
PANC-1 | microarray, refers to: ACTA2 | 50 µM | baseline: untreated | 0.779
SK-OV-3 | microarray, refers to: ACTA2 | 10 µM | baseline: untreated | 1.04
PANC-1 | microarray, refers to: ADAMTS14 | 10 µM | baseline: untreated | 0.757
SK-OV-3 | microarray, refers to: GADD45A | 50 µM | baseline: untreated | 6.3
A549 | DNA microarray, refers to: CCL22 | 50 µM | baseline: untreated cells | 1
PANC-1 | DNA microarray, refers to: CCL11 | 50 µM | baseline: untreated cells | 1
PANC-1 | microarray, refers to: ADAMTS8 | 50 µM | baseline: untreated | 0.46
A549 | microarray, refers to: ACTA2 | 50 µM | baseline: untreated | 0.771

Series 6
SMILES: CCC1(c2cccc(-c3cn(C)nc3C)c2)C2=C(Nc3n[nH]cc31)C(F)C(C)(C)CC2=O (single isomer, unassigned)
Tested at: 1 µM
target | test | how to read | remaining binding [%]
Tyrosine-protein kinase Tec (TEC, Homo sapiens, UniProt P42680) | binding, competition with immobilised ligand |  | 100
Vascular endothelial growth factor receptor 3 (FLT4, Homo sapiens, UniProt P35916) | binding, competition with immobilised ligand |  | 100
Rhodopsin kinase GRK7 (GRK7, Homo sapiens, UniProt Q8WTQ7) | kinase binding, KINOMEscan | baseline: DMSO control | 93
Cyclin-dependent kinase 18 (CDK18, Homo sapiens, UniProt Q07002) | binding, competition with immobilised ligand |  | 100
Serine/threonine-protein kinase PAK 6 (PAK6, Homo sapiens, UniProt Q9NQU5) | binding, competition with immobilised ligand |  | 100
Dual specificity mitogen-activated protein kinase kinase 6 (MAP2K6, Homo sapiens, UniProt P52564) | binding, competition with immobilised ligand |  | 100
Serine/threonine-protein kinase MRCK beta (CDC42BPB, Homo sapiens, UniProt Q9Y5S2) | kinase binding, KINOMEscan | baseline: DMSO control | 100
Serine/threonine-protein kinase LATS2 (LATS2, Homo sapiens, UniProt Q9NRM7) | kinase binding, KINOMEscan | baseline: DMSO control | 89
Myosin-IIIa (MYO3A, Homo sapiens, UniProt Q8NEV4) | kinase binding, KINOMEscan | baseline: DMSO control | 100
Serine/threonine-protein kinase N1 (PKN1, Homo sapiens, UniProt Q16512) | binding, competition with immobilised ligand |  | 100
Protein-tyrosine kinase 6 (PTK6, Homo sapiens, UniProt Q13882) | binding, competition with immobilised ligand |  | 100
Cyclin-dependent kinase 11A (CDK11A, Homo sapiens, UniProt Q9UQ88) | binding, competition with immobilised ligand |  | 100
Focal adhesion kinase 1 (PTK2, Homo sapiens, UniProt Q05397) | binding, competition with immobilised ligand |  | 100
Phosphatidylinositol 4,5-bisphosphate 3-kinase catalytic subunit alpha isoform (PIK3CA, Homo sapiens, UniProt P42336) | binding, competition with immobilised ligand |  | 100

Series 7
SMILES: CNc1ncc2cc(-c3cc(OC)cc(OC)c3Cl)c(=O)n(CCc3ccc(NC(=O)C(C#N)=CC(C)(C)N4CCOCC4)cc3)c2n1
Effect on: kinase activity
target | setting | inhibition [%]
Focal adhesion kinase 1 (PTK2, Homo sapiens, UniProt Q05397) | 1 µM | 4
Serine/threonine-protein kinase PLK4 (PLK4, Homo sapiens, UniProt O00444) | 0.1 µM | 0
Mitogen-activated protein kinase 9 (MAPK9, Homo sapiens, UniProt P45984) | 1 µM | 7
Ribosomal protein S6 kinase alpha-3 (RPS6KA3, Homo sapiens, UniProt P51812) | 0.1 µM | 0
Serine/threonine-protein kinase PAK 6 (PAK6, Homo sapiens, UniProt Q9NQU5) | 0.1 µM | 2
Maternal embryonic leucine zipper kinase (MELK, Homo sapiens, UniProt Q14680) | 0.1 µM | 1
Testis-specific serine/threonine-protein kinase 1 (TSSK1B, Homo sapiens, UniProt Q9BXA7) | 0.1 µM | -1
Dual specificity protein kinase CLK3 (CLK3, Homo sapiens, UniProt P49761) | 1 µM | 0
Ribosomal protein S6 kinase alpha-6 (RPS6KA6, Homo sapiens, UniProt Q9UK32) | 0.1 µM | 0
Ephrin type-B receptor 3 (EPHB3, Homo sapiens, UniProt P54753) | 0.1 µM | 1
Mitogen-activated protein kinase kinase kinase kinase 5 (MAP4K5, Homo sapiens, UniProt Q9Y4K4) | 1 µM | -2
Testis-specific serine/threonine-protein kinase 2 (TSSK2, Homo sapiens, UniProt Q96PF2) | 0.1 µM | -2
Serine/threonine-protein kinase 3 (STK3, Homo sapiens, UniProt Q13188) | 1 µM | 4
Serine/threonine-protein kinase MRCK alpha (CDC42BPA, Homo sapiens, UniProt Q5VT25) | 0.1 µM | -4

Series 8
Compound: CCN1/C(=C/C=C2\CCCC(/C=C/C3=[N+](CC)c4ccccc4C3(C)C)=C2NCCCCCCCCN2CCC(Nc3nc4ccccc4n3Cc3ccc(F)cc3)CC2)C(C)(C)c2ccccc21
Cell line: U-87 MG
Tested at: concentration not given
Baseline: DMSO
test | log2 fold change
refers to: NTHL1 mRNA | -1.21
refers to: RECK mRNA | -0.955
refers to: IDH2 mRNA | -1.45
refers to: DLGAP5 mRNA | -2.29
refers to: DZIP3 mRNA | -0.939
refers to: CDK17 mRNA | 0.809
refers to: ABCC9 mRNA | 1.64
refers to: MXRA8 mRNA | -2.09
refers to: TONSL mRNA | -1.93
refers to: ANKRD22 mRNA | 2.74
refers to: NFE2L1 mRNA | 0.919
refers to: DUS4L mRNA | 0.811
refers to: GPATCH2 mRNA | 0.806
refers to: C9orf50 mRNA | 2.76
refers to: TCF4 mRNA | -2.17
refers to: METTL7B mRNA | -3.71

Further values, each from its own experiment
E3 ubiquitin-protein ligase NEDD4: E3 ubiquitin-protein ligase NEDD4 (Homo sapiens, UniProt P46934)
UniProt P46934, sequence (whole entry, looked up): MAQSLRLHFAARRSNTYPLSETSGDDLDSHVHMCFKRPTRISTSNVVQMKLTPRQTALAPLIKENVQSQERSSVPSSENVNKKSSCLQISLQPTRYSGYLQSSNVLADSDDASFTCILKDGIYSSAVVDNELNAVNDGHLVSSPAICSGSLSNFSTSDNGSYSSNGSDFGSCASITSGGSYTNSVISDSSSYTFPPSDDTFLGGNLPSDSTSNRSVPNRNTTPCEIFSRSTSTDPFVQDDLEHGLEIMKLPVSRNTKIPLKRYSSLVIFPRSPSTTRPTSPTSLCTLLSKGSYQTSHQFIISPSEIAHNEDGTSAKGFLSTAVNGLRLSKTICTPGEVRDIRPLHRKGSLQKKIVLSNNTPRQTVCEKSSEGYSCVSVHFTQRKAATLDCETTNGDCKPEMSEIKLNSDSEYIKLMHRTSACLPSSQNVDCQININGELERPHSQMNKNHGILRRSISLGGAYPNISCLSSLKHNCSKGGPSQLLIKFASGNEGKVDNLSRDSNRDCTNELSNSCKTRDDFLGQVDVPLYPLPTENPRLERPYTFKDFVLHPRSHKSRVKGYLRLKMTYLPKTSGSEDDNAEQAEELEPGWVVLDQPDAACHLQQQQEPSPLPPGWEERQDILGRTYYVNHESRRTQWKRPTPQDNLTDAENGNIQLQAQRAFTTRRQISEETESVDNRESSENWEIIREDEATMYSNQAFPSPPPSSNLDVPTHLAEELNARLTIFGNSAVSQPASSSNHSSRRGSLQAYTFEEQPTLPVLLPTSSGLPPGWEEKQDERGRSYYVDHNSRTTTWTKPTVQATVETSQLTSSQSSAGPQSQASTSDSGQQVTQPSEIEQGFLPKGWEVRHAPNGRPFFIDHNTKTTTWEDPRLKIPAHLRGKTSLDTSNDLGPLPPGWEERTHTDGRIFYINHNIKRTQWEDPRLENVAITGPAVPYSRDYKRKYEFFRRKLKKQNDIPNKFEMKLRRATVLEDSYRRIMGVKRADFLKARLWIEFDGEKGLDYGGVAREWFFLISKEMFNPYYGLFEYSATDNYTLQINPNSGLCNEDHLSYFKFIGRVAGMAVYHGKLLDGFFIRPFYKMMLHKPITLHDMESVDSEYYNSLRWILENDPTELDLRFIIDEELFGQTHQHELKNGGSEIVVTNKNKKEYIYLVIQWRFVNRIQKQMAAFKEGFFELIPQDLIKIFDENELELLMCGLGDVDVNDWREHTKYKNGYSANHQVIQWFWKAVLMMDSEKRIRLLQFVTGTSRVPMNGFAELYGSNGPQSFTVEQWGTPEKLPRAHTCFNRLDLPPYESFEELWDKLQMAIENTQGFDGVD
SMILES | tested on | test | system | setting | endpoint | value
CCOC(=O)/C=C/CNCCCN1c2ccccc2CCc2ccc(Cl)cc21 | E3 ubiquitin-protein ligase NEDD4 | enzyme activity, inhibitor, TR-FRET |  | 33 µM | inhibition | 85.5%
COc1cc(-c2nc3ccc(C(=O)NCCCN(C)C)cc3n2C2CCC2)cc(OC)c1OC |  |  | mouse, male | oral gavage, 50 mg/kg | apparent clearance CL/F | 1.6 ± 0.36 mg/(h·µmol/L)/kg
CCOC(=O)/C=C/CNCCCCN1c2cc(Cl)ccc2CCc2cnn(C)c21.O=C(O)/C=C\C(=O)O |  |  | mouse liver microsomes | 1 µM | intrinsic clearance | 227 ± 8.4 µL/min/mg protein
CCONC(=O)/C=C/CNCCCCN1c2cc(Cl)ccc2CCc2cnn(C)c21.O=C(O)/C=C\C(=O)O |  |  | mouse liver microsomes | 1 µM | intrinsic clearance | 65.9 ± 8.4 µL/min/mg protein
COC(=O)/C=C/C(=O)NCCCN1c2ccccc2CCc2ccc(Cl)cc21 | E3 ubiquitin-protein ligase NEDD4 | enzyme activity, inhibitor, TR-FRET |  | 33 µM | inhibition | < 10%

Repeated from above (series 4):
Compound | root length
O=C(O)C1(O)Oc2cc(Br)ccc2N(Cc2ccccc2)C1=O (stereo not drawn) | 0.135 cm
CC(C)=CCN1C(=O)C(O)(C(=O)O)Oc2cc(F)ccc21 (stereo not drawn) | 0.77 cm
CC(C)(C)c1ccc(Oc2ccc3c(c2)OC(O)(C(=O)O)C(=O)N3Cc2ccccc2)cc1 (stereo not drawn) | 0.122 cm
CCCN1C(=O)C(O)(C(=O)O)Oc2cc(F)ccc21 (stereo not drawn) | 0.129 cm
COc1ccc2c(c1)OC(O)(C(=O)O)C(=O)N2Cc1ccccc1 (stereo not drawn) | 0.248 cm
Cc1ccc2c(c1)OC(O)(C(=O)O)C(=O)N2Cc1ccccc1 (stereo not drawn) | 0.752 cm
CN1C(=O)C(O)(C(=O)O)Oc2cc(F)ccc21 (stereo not drawn) | 0.438 cm
O=C(O)C1(O)Oc2cc(Cl)ccc2N(Cc2ccccc2)C1=O (stereo not drawn) | 0.067 cm
O=C(O)C1(O)Oc2ccccc2N(Cc2ccccc2)C1=O (stereo not drawn) | 0.736 cm
